{"data": "Measured values of several laboratories", "note": "± gives the spread as reported."}
{"Structure (SMILES)": "Cc1cccc(-c2cn([C@@H]3O[C@H](CO)[C@@H](O)[C@H]3O)c3ncnc(N)c23)c1", "organism": "Trichomonas vaginalis", "assay": "resorufin", "system": "G3, metronidazole-sensitive", "setting": "24 h + 2 h, 2% O2", "quantity": "EC50", "value": "0.77 ± 0.019 µM"}
{"Structure (SMILES)": "CN(C)c1cc(CN2CCc3ccccc3C2)c(O)c2c1C[C@H]1C[C@H]3[C@H](N(C)C)C(O)=C(C(N)=O)C(=O)[C@@]3(O)C(O)=C1C2=O", "organism": "Streptococcus pneumoniae", "system": "157E", "setting": "together with: mouse serum", "how to read": "baseline: no serum", "quantity": "MIC increase", "value": "5 dilutions"}
{"Structure (SMILES)": "COC1C=COC2(C)Oc3c(C)c(O)c4c(c3C2=O)C2=NC3(CCN(CC(C)C)CC3)NC2=C(NC(=O)C(C)=CC=CC(C)C(O)C(C)C(O)C(C)C(OC(=O)Nc2cccnn2)C1C)C4=O (stereo not shown)", "organism": "Mycobacteroides abscessus", "system": "ATCC 19977", "setting": "CAMHB", "quantity": "IC50", "value": "0.028 µM"}
{"Structure (SMILES)": "CN(Cc1cc(N(C)C)c2c(c1O)C(=O)C1=C(O)[C@]3(O)C(=O)C(C(N)=O)=C(O)[C@@H](N(C)C)[C@@H]3C[C@@H]1C2)CC(C)(C)C", "organism": "Streptococcus pneumoniae", "system": "157E", "setting": "50% mouse serum", "quantity": "MIC", "value": "0.25 mg/L"}
{"Structure (SMILES)": "CC[C@H](C)[C@H](NC(=O)[C@H](CCCCN)NC(=O)[C@H](CC(N)=O)NC(=O)[C@H](Cc1c[nH]c2ccccc12)NC(=O)[C@H](Cc1ccccc1)NC(=O)[C@H](CCCCN)NC(=O)[C@H](CCCCNC(=N)N)NC(=O)[C@H](CC(C)C)NC(=O)[C@H](Cc1c[nH]c2ccccc12)NC(=O)[C@H](CCCCN)NC(=O)[C@H](CCCCNC(=N)N)NC(=O)[C@H](CC(C)C)NC(=O)CNC(C)=O)C(=O)N[C@@H](CCCCN)C(=O)N[C@@H](CCCCNC(=N)N)C(N)=O", "organism": "Gram-negative bacteria", "quantity": "geometric mean MIC", "value": "4.42 µM"}
{"Structure (SMILES)": "O=C1CC(c2ccc(O)cc2)Oc2cc(O)cc([O][Ga+][O]c3cc(O)cc4c3C(=O)CC(c3ccc(O)cc3)O4)c21 (stereo not shown)", "organism": "Pseudomonas aeruginosa", "system": "rabbit erythrocytes", "setting": "0.08 µM", "quantity": "remaining haemolytic activity", "value": "5%"}
{"Structure (SMILES)": "N#CCC(=O)NNC(=S)Nc1ccc(Cl)c(Cl)c1", "organism": "Saccharomyces cerevisiae", "assay": "inhibitor, refers to: PDR5, SNQ2", "setting": "concentration not given, together with: ketoconazole 40 µM", "quantity": "mRNA level", "value": "inhibited"}
{"Structure (SMILES)": "C[C@@H](c1ccn(Cc2ccc(F)c(F)c2)n1)[C@](O)(Cn1cnnn1)c1ccc(F)cc1F", "organism": "Candida tropicalis", "assay": "growth, broth microdilution", "system": "2718", "setting": "24 h, 30 °C, ≥50% inhibition", "quantity": "MIC", "value": "< 0.008 mg/L"}
{"Structure (SMILES)": "CC[C@@H](C)[C@@H](NC(=O)[C@@H](C)N)C(=O)N[C@H](CCCCN)C(=O)N[C@@H](C(=O)N[C@H](CCCNC(=N)N)C(=O)N[C@H](CCCCN)C(=O)N[C@H](CC(C)C)C(=O)N[C@H](Cc1ccccc1)C(=O)N[C@H](CCCCN)C(=O)N[C@H](CCCCN)C(=O)N[C@H](CC(C)C)C(=O)N[C@H](CC(C)C)C(=O)N[C@H](CCCNC(=N)N)C(N)=O)[C@H](C)CC", "organism": "Escherichia coli", "assay": "broth microdilution checkerboard, refers to: levofloxacin", "system": "ATCC 25922, LB medium", "setting": "concentration not given", "quantity": "MIC of antibiotic", "value": "0.003 mg/L"}
{"Structure (SMILES)": "CC1(C)Cc2sc(NC(=O)Cc3ccc(S(N)(=O)=O)cc3)c(C#N)c2CN1CC1CCCCC1", "organism": "Zika virus", "assay": "viral replication", "system": "A549, Dakar, Nluc reporter", "setting": "up to 50 µM", "quantity": "inhibition", "value": "no inhibition"}
{"Structure (SMILES)": "C[C@@H](c1ccn(Cc2ccc(I)cc2)n1)[C@](O)(Cn1cnnn1)c1ccc(F)cc1F", "organism": "Candida tropicalis", "assay": "growth, broth microdilution", "system": "2718", "setting": "24 h, 30 °C, ≥50% inhibition", "quantity": "MIC", "value": "< 0.008 mg/L"}
{"Structure (SMILES)": "COc1ccc(Nc2c(C#N)cnc3ccc(Cl)cc23)cc1", "organism": "Trypanosoma cruzi", "assay": "growth", "system": "cardiomyocytes, Y, amastigote", "setting": "72 h", "quantity": "IC50", "value": "12 µM"}
{"Structure (SMILES)": "CN(C)c1cc(CN2CCOCC2)c(O)c2c1C[C@H]1C[C@H]3[C@H](N(C)C)C(O)=C(C(N)=O)C(=O)[C@@]3(O)C(O)=C1C2=O", "organism": "Streptococcus pneumoniae", "system": "ATCC 700905, Tet M ribosome protection", "quantity": "MIC", "value": "0.25 mg/L"}
{"Structure (SMILES)": "C=C(C)[C@@H]1CC[C@]2(CO)CC[C@]3(C)[C@H](CC[C@@H]4[C@@]5(C)CCCNC(C)(C)[C@@H]5CC[C@]43C)[C@@H]12", "organism": "Human cytomegalovirus", "assay": "cytopathic effect", "system": "HFF, AD169", "quantity": "EC90", "value": "> 6 µM"}
{"Structure (SMILES)": "CN[C@H](CC(C)C)C(=O)N[C@H]1C(=O)N[C@@H](CC(N)=O)C(=O)N[C@H]2C(=O)N[C@H]3C(=O)N[C@H](C(=O)N[C@H](C(=O)O)c4cc(O)cc(O)c4-c4cc3ccc4O)[C@H](O)c3ccc(c(Cl)c3)Oc3cc2cc(c3O[C@@H]2O[C@H](CO)[C@@H](O)[C@H](O)[C@H]2O[C@H]2C[C@](C)(NCc3ccc(C(=O)OCCCCCCN(Cc4ccccn4)Cc4ccccn4)cc3)[C@H](O)[C@H](C)O2)Oc2ccc(cc2Cl)[C@H]1O", "organism": "Bacillus subtilis", "assay": "protein synthesis, refers to: YpuA", "system": "168", "setting": "concentration not given, 10 min, at peak effective concentration", "how to read": "baseline: untreated", "quantity": "regulation factor", "value": "6.7 ± 1.95"}
{"Structure (SMILES)": "Cc1ccc2nc(-c3ccc(F)c(F)c3)c(CN3CCN(c4cccc(C(F)(F)F)c4)CC3)n2c1", "organism": "Trypanosoma cruzi", "system": "3T3 host cells, Tulahuen beta-galactosidase", "setting": "6 days", "quantity": "EC50", "value": "1.6 µM"}
{"Structure (SMILES)": "CCCCCc1ccc2c(c1O)C(c1ccc(OC)c(OC)c1)OC2=O (stereo not shown)", "organism": "Naegleria fowleri", "assay": "parasite growth, resazurin", "system": "ATCC30808", "setting": "48 h", "quantity": "IC90", "value": "93.5 µM"}
{"Structure (SMILES)": "C=C(C)[C@@H]1CCC=C2CC[C@]3(C)[C@H](CC[C@@H]4[C@@]5(C)CCCNC(C)(C)[C@@H]5CC[C@]43C)[C@H]21", "organism": "Human cytomegalovirus", "assay": "cytopathic effect", "system": "HFF, AD169", "setting": "concentration not given", "quantity": "antiviral activity", "value": "inactive"}
{"Structure (SMILES)": "CS(=O)(=O)c1ccc(-c2cn([C@@H]3O[C@H](CO)[C@@H](O)[C@H]3O)c3ncnc(N)c23)cc1", "organism": "Trichomonas vaginalis", "assay": "resorufin", "system": "G3, metronidazole-sensitive", "setting": "24 h + 2 h, 2% O2", "quantity": "EC50", "value": "74.2 ± 0.8 µM"}
{"Structure (SMILES)": "CC(C)C[C@H](NC(=O)[C@H](CCC(=O)O)NC(=O)[C@H](CC(=O)O)NC(=O)[C@H](C)NC(=O)[C@@H](N)Cc1c[nH]cn1)C(=O)N[C@H](C(=O)N[C@@H](C)C(=O)NCC(=O)N[C@H](C(=O)N[C@@H](CCCCN)C(=O)N[C@@H](CCC(N)=O)C(N)=O)C(C)C)C(C)C", "organism": "Gram-negative bacteria", "setting": "concentration not given", "quantity": "antibacterial activity", "value": "inactive"}
{"Structure (SMILES)": "Cc1ccc2nc(-c3ccccc3)c(CNc3cccc(C(F)(F)F)c3)n2c1", "organism": "Trypanosoma cruzi", "assay": "parasite growth", "system": "Tulahuen beta-galactosidase", "setting": "concentration not given", "quantity": "activity", "value": "inactive"}
{"Structure (SMILES)": "CC[C@H](C)[C@H](NC(=O)[C@H](CCCCN)NC(=O)[C@H](CC(N)=O)NC(=O)[C@H](Cc1c[nH]c2ccccc12)NC(=O)[C@H](Cc1ccccc1)NC(=O)[C@H](CCCCN)NC(=O)[C@H](CCCNC(=N)N)NC(=O)[C@H](CC(C)C)NC(=O)[C@H](Cc1c[nH]c2ccccc12)NC(=O)[C@H](CCCCN)NC(=O)[C@H](CCCNC(=N)N)NC(=O)[C@H](CC(C)C)NC(=O)CNC(C)=O)C(=O)N[C@@H](CCCCN)C(=O)N[C@@H](CCCNC(=N)N)C(N)=O", "organism": "Gram-negative bacteria", "quantity": "geometric mean MIC", "value": "7.43 µM"}
{"Structure (SMILES)": "COc1ccc(-c2nc(-c3ccccc3OC)[nH]c2-c2ccc(OC)cc2)cc1", "organism": "Schistosoma mansoni", "system": "mature male and female worms", "setting": "10 µM, 96 h", "quantity": "worm killing", "value": "0%"}
{"Structure (SMILES)": "CN(C)c1cc(CNCc2ccccc2)c(O)c2c1C[C@H]1C[C@H]3[C@H](N(C)C)C(O)=C(C(N)=O)C(=O)[C@@]3(O)C(O)=C1C2=O", "organism": "Streptococcus pneumoniae", "assay": "microbial growth, broth dilution", "quantity": "MIC", "value": "0.125 mg/L"}
{"Structure (SMILES)": "COc1ccc(-n2nc3c(=O)n(Cc4cccc(NC(=O)c5ccccc5)c4)nc(C)c3c2C)cc1", "organism": "Zika virus", "system": "Vero, MR766", "how to read": "baseline: CC50 over EC50", "quantity": "selectivity index", "value": "> 3.3"}
{"Structure (SMILES)": "CCC1(C)CCN(Cc2cc(N(C)C)c3c(c2O)C(=O)C2=C(O)[C@]4(O)C(=O)C(C(N)=O)=C(O)[C@@H](N(C)C)[C@@H]4C[C@@H]2C3)CC1", "organism": "Streptococcus pneumoniae", "assay": "microbial growth, broth dilution", "quantity": "MIC", "value": "< 0.06 mg/L"}
{"Structure (SMILES)": "Oc1cc(O)cc(Oc2c(O)cc(O)c3c2Oc2c(O)cc4oc5c(Oc6cc(O)cc(O)c6)c(O)cc(O)c5c4c2O3)c1", "organism": "Porcine epidemic diarrhea virus", "assay": "RT-qPCR, refers to: ORF3 RNA", "system": "Vero", "setting": "50 µM, 24 h post-infection", "how to read": "baseline: vehicle", "quantity": "viral RNA level", "value": "30 to 40%"}
{"Structure (SMILES)": "COc1ccc(C2OC(=O)c3ccc(-c4ccccc4)c(O)c32)c(OC)c1OC (stereo not shown)", "organism": "Naegleria fowleri", "assay": "parasite growth, resazurin", "setting": "48 h", "quantity": "IC50", "value": "12.9 µM"}
{"Structure (SMILES)": "C[C@@H](c1ccn(Cc2ccc(F)c(Cl)c2)n1)[C@](O)(Cn1cnnn1)c1ccc(F)cc1F", "organism": "Candida tropicalis", "assay": "growth, broth microdilution", "system": "2718", "setting": "24 h, 30 °C, ≥50% inhibition", "quantity": "MIC", "value": "< 0.008 mg/L"}
{"Structure (SMILES)": "Cc1ccc2nc(-c3ccc(Cl)cc3)c(CN3CCN(c4ccc(F)cc4)CC3)n2c1", "organism": "Trypanosoma cruzi", "system": "3T3 host cells, Tulahuen beta-galactosidase", "setting": "6 days", "quantity": "EC50", "value": "1.1 µM"}
{"Structure (SMILES)": "CN(C)c1cc(CNc2ccccc2)c(O)c2c1C[C@H]1C[C@H]3[C@H](N(C)C)C(O)=C(C(N)=O)C(=O)[C@@]3(O)C(O)=C1C2=O", "organism": "Streptococcus pneumoniae", "system": "ATCC 700905, Tet M ribosome protection", "quantity": "MIC", "value": "2 mg/L"}
{"note": "For quick reference, copied from above:"}
{"Structure (SMILES)": "C[C@@H](c1ccn(Cc2ccc(F)c(F)c2)n1)[C@](O)(Cn1cnnn1)c1ccc(F)cc1F", "organism": "Candida tropicalis", "assay": "growth, broth microdilution", "system": "2718", "setting": "24 h, 30 °C, ≥50% inhibition", "quantity": "MIC", "value": "< 0.008 mg/L"}
{"Structure (SMILES)": "O=C1CC(c2ccc(O)cc2)Oc2cc(O)cc([O][Ga+][O]c3cc(O)cc4c3C(=O)CC(c3ccc(O)cc3)O4)c21 (stereo not shown)", "organism": "Pseudomonas aeruginosa", "system": "rabbit erythrocytes", "setting": "0.08 µM", "quantity": "remaining haemolytic activity", "value": "5%"}
{"Structure (SMILES)": "COc1ccc(-c2nc(-c3ccccc3OC)[nH]c2-c2ccc(OC)cc2)cc1", "organism": "Schistosoma mansoni", "system": "mature male and female worms", "setting": "10 µM, 96 h", "quantity": "worm killing", "value": "0%"}
